Experimental data of several laboratories.
Parts stem from different laboratories: compare values within a part only. Positions count from the first letter of the parent shown.
Sequence of UniProt Q15831 (whole entry, looked up): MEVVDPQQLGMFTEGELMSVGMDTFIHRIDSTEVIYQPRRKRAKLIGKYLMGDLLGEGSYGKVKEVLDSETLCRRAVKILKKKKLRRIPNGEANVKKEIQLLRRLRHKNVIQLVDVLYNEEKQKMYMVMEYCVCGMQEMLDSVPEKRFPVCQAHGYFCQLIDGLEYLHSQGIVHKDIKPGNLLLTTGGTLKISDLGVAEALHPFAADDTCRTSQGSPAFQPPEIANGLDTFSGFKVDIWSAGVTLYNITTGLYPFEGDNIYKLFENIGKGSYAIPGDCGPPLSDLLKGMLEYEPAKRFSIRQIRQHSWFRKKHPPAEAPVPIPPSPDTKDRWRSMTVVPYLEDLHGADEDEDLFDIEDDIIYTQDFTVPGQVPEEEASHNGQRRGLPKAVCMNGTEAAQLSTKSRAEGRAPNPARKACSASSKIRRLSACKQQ
Sequence of UniProt P62344 (whole entry, looked up): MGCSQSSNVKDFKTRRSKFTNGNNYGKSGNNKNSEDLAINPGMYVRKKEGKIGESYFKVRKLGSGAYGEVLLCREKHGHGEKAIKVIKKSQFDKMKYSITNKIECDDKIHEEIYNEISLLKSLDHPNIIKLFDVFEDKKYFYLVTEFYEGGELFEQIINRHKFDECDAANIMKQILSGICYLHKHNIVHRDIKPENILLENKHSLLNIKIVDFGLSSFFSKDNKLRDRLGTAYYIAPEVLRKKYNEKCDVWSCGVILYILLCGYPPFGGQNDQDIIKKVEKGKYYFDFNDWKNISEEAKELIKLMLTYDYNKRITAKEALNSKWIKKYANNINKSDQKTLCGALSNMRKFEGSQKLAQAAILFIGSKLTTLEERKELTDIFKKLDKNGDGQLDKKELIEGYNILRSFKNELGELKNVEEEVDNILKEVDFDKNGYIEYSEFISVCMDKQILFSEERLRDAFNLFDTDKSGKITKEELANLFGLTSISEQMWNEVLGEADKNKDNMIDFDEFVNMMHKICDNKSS

Series 1
Target: HLA class I histocompatibility antigen, C alpha chain, allele C*04:01 (Homo sapiens, UniProt P10321)
Read-out: peptide-MHC binding
Form: peptide
Tested at: concentration not given
Endpoint: binding
RYEFTAPFI: inactive
YVDIIGLSV: inactive
RRRRRRAAL: inactive
ILNRETLLDFV: inactive
LLPRRGPRL: inactive
FPYTGDPPY: inactive
HELSLFWPL: inactive
RAMRMVYYL: inactive

Series 2
Target: CCND1, cyclin fold, Cln2 fusion (human)
Method: yeast growth competition, sequencing
Matrix: yeast
Notes: strong parent motif
Baseline: not given
Reading: higher = stronger binding
Endpoint: normalised enrichment score
Starting sequence: viral docking peptide; YKVKRRLVFGADD; partner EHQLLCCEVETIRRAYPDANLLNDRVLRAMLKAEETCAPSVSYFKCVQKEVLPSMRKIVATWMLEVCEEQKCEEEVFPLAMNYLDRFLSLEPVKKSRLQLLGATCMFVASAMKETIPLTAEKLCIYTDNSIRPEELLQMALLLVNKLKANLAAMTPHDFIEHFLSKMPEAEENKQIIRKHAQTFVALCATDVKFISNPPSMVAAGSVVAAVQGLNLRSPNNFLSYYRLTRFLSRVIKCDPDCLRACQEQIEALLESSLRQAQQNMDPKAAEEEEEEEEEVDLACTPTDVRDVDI
L7Y: -0.107
F9A: -0.625
F9R: -0.538
K4N: 1.91
G10T: 1.93
R5C: 0.514
F9D: 0.253
L7I: 1.72

Mixed results
C[C@@H]1CN(c2cc(-c3n[nH]c4ccc(OC5(C)CC5)cc34)ncn2)C[C@H](C)O1
remaining binding (CDPK1 (Plasmodium falciparum, UniProt P62344); cell-free assay, competition with immobilised ligand; 0.1 µM): 94%

CC[C@@H](C)c1nc2cc(Nc3ccnc4ccc(S(=O)(=O)C(C)C)cc34)ccc2s1
viability (L929; necroptosis protection, CCK-8; 0.078 µM, with: TNF-α plus zVAD): 16.6%

Cn1cncc1[C@](O)(COc1ccc(C#N)cc1-c1ccc(OC(F)(F)F)cc1)c1ccc(C#N)cc1
remaining binding (STK11 (Homo sapiens, UniProt Q15831); cell-free assay, competition with immobilised ligand; 1 µM): 71%

Excerpt of the above (mixed results):
CC[C@@H](C)c1nc2cc(Nc3ccnc4ccc(S(=O)(=O)C(C)C)cc34)ccc2s1
viability (L929; necroptosis protection, CCK-8; 0.078 µM, with: TNF-α plus zVAD): 16.6%

Cn1cncc1[C@](O)(COc1ccc(C#N)cc1-c1ccc(OC(F)(F)F)cc1)c1ccc(C#N)cc1
remaining binding (STK11 (Homo sapiens, UniProt Q15831); cell-free assay, competition with immobilised ligand; 1 µM): 71%
